Assay results pooled from the literature.
Each line is one published result; not all experiments were run side by side. ± marks the error that the study gave.

Structure (SMILES) | organism | test | system | setting | IC50 [nM]
CC(C)C[C@H](NC(=O)[C@H](CC(=O)O)NC(=O)[C@@H](NC(=O)[C@H](CCC(=O)O)NC(=O)[C@H](CCCCN)NC(=O)[C@H](Cc1ccc(O)cc1)NC(=O)[C@H](CCCCN)NC(=O)[C@H](Cc1c[nH]cn1)NC(=O)CNC(=O)CN)[C@@H](C)O)C(N)=O | hepatitis C virus | viral replication, luciferase reporter | Huh-7 ET replicon | 72 h | 2170
Cc1nc2c(NCc3cccc(S(C)(=O)=O)c3)nccn2c1-c1ccc(O)c(F)c1 | Rhinovirus C | viral replication, high-content imaging | RV-C15a-mGL | – | 29 ± 20
C=CC(=O)N1CC/C(=C\c2ccc(F)c([N+](=O)[O-])c2)C(=O)/C(=C/c2ccc(F)c([N+](=O)[O-])c2)C1 | human alphaherpesvirus 1 | – | K26 GFP, 3D adult human skin air-liquid interface | 48 h | 240
Cc1cc(N2CCC(C#N)(C3(C)CC3)C2=O)cc(C(=O)NCc2cc(F)cc(-c3cnn(C)c3)c2)n1 (racemic) | Plasmodium falciparum | parasite growth | Dd2-B2 parent line | – | 21
CC[C@H](C)[C@H](NC(=O)[C@H](Cc1c[nH]c2ccccc12)NC(=O)c1ccccc1)C(=O)N[C@H](C(=O)N[C@@H](Cc1ccc(O)cc1)C(=O)N[C@@H](CCCCN)C(=O)N[C@@H](Cc1c[nH]c2ccccc12)C(=O)N1CCC[C@@H]1C(=O)N[C@@H](CCCNC(=N)N)C(=O)N[C@@H](CCCCN)C(=O)N[C@H](C(=O)N[C@H](C(=O)N[C@@H](CCCNC(=N)N)C(=O)N[C@@H](Cc1ccc(O)cc1)C(=O)N[C@@H](Cc1c[nH]c2ccccc12)C(=O)N[C@H](C(=O)NCC(=O)N[C@@H](CCCCN)C(=O)N[C@@H](CCCNC(=N)N)C(N)=O)[C@@H](C)O)C(C)C)C(C)C)C(C)C | Corynebacterium glutamicum | growth | ATCC 13032 | – | 40
O=C(Oc1cc(OC(=O)c2cc(O)c(O)c(O)c2)c2ccccc2c1)c1cc(O)c(O)c(O)c1 | human alphaherpesvirus 2 | viral replication, RT-qPCR | HeLa, acyclovir-resistant | – | 1030 ± 300
CCCCCCCCCCCCCCC[C@@H](O)[C@H](CO)NC(=O)N[C@@H](CC(C)C)C(=O)N[C@@H](CCC(=O)O)C(=O)N[C@@H](CCC(N)=O)C(=O)N[C@@H](CC(C)C)C(=O)N[C@@H](CO)C(=O)N[C@H](C(=O)N[C@@H](Cc1c[nH]c2ccccc12)C(=O)NCC(=O)N[C@@H](CO)C(=O)N[C@@H](CCCCN)C(=O)N[C@@H](CCC(N)=O)C(=O)N[C@@H](CC(N)=O)C(=O)N[C@@H](CCC(N)=O)C(=O)N[C@@H](C)C(=O)N[C@@H](CCCNC(=N)N)C(=O)N[C@@H](CCCNC(=N)N)C(=O)N[C@@H](CC(C)C)C(N)=O)C(C)C | HIV-1 HXB2 | viral infection, luciferase reporter | TZM-bl | – | > 4000
C[C@@H]1NC(=O)[C@@H](CCCN)NC(=O)[C@H](Cc2ccccc2)NC(=O)[C@@H](Cc2ccccc2)NC(=O)[C@H](Cc2ccccc2)NC(=O)[C@@H](CCCN)NC1=O | Balamuthia mandrillaris | parasite growth, ATP luminescence | – | – | 14800
CC[C@H](C)[C@H](NC(=O)[C@H](Cc1c[nH]c2ccccc12)NC(=O)c1ccccc1)C(=O)N[C@H](C(=O)N[C@@H](Cc1ccc(O)cc1)C(=O)N[C@@H](CCCCN)C(=O)N[C@@H](Cc1c[nH]c2ccccc12)C(=O)N[C@H](CCCNC(=N)N)C(=O)N[C@@H](CCCNC(=N)N)C(=O)N[C@@H](CCCCN)C(=O)N[C@H](C(=O)N[C@H](C(=O)N[C@@H](CCCNC(=N)N)C(=O)N[C@@H](Cc1ccc(O)cc1)C(=O)N[C@@H](Cc1c[nH]c2ccccc12)C(=O)N[C@H](C(=O)NCC(=O)N[C@@H](CCCCN)C(=O)N[C@@H](CCCNC(=N)N)C(N)=O)[C@@H](C)O)C(C)C)C(C)C)C(C)C | Corynebacterium glutamicum | growth | ATCC 13032 | – | 20
CC(=O)O[C@H]1C[C@H](O[C@H]2[C@@H](O)C[C@H](O[C@H]3[C@@H](O)C[C@H](O[C@H]4CC[C@@]5(C)[C@H](CC[C@@H]6[C@@H]5C[C@@H](O)[C@]5(C)[C@@H](C7=CC(=O)OC7)CC[C@]65O)C4)O[C@@H]3C)O[C@@H]2C)O[C@H](C)[C@H]1O[C@@H]1O[C@H](CO)[C@@H](O)[C@H](O)[C@H]1O | human alphaherpesvirus 1 | – | K26 GFP, 3D adult human skin submerged | 48 h | 170
NCCC[C@@H]1NC(=O)[C@@H](CCCN)NC(=O)[C@H](Cc2ccccc2)NC(=O)[C@@H](Cc2ccc(F)c(F)c2)NC(=O)[C@H](Cc2ccccc2)NC(=O)[C@@H](CCCN)NC1=O | Balamuthia mandrillaris | parasite growth, ATP luminescence | – | – | 13400
Oc1c(Br)cc(Br)c2nc3ccc(C(F)(F)F)cc3nc12 | Acinetobacter baumannii | microbial growth | 19606 | – | > 100000
CC[C@H](C)[C@H](NC(=O)CNC(=O)[C@H](Cc1c[nH]c2ccccc12)NC(=O)[C@@H](NC(=O)[C@@H](NC(=O)[C@H](CC(C)C)NC(=O)[C@H](CCC(N)=O)NC(=O)[C@H](CC(C)C)NC(=O)[C@@H](N)CC(C)C)[C@@H](C)O)C(C)C)C(=O)N[C@@H](CCCCN)C(=O)N[C@@H](CCC(N)=O)C(=O)N[C@@H](CC(C)C)C(=O)N[C@@H](CCC(N)=O)C(=O)N[C@@H](C)C(=O)N[C@@H](CCCNC(=N)N)C(=O)N[C@H](C(=O)N[C@@H](CC(C)C)C(=O)N[C@@H](CCCCN)C(N)=O)[C@@H](C)CC | HIV-1 HXB2 | viral infection, luciferase reporter | TZM-bl | – | > 4000
C[C@@H](O)[C@H](NC(=O)[C@H](Cc1c[nH]c2ccccc12)NC(=O)[C@H](CCCNC(=N)N)NC(=O)[C@H](Cc1c[nH]c2ccccc12)NC(=O)[C@H](CCCNC(=N)N)NC(=O)CNC(=O)[C@@H](NC(=O)[C@H](CCCNC(=N)N)NC(=O)[C@H](CCCNC(=N)N)NC(=O)[C@H](CC(N)=O)NC(=O)[C@H](Cc1c[nH]c2ccccc12)NC(=O)[C@H](CCCNC(=N)N)NC(=O)[C@H](Cc1c[nH]c2ccccc12)NC(=O)c1ccccc1)[C@@H](C)O)C(=O)NCC(=O)N1CCC[C@H]1C(N)=O | Corynebacterium glutamicum | growth | ATCC 13032 | – | 20
COC(=O)C1=CO[C@@H](C)[C@@H]2Cn3ccc4c5ccccc5nc-4c3C[C@H]12 | Plasmodium falciparum | growth, [3H]-hypoxanthine uptake | Dd2 | 72 h | 353 ± 149
CCCCCCCCCCCCCCC[C@@H](O)[C@H](CO)NC(=O)N[C@@H](CC(C)C)C(=O)N[C@@H](CCC(N)=O)C(=O)N[C@@H](C)C(=O)N[C@@H](CCCNC(=N)N)C(=O)N[C@H](C(=O)N[C@@H](CC(C)C)C(=O)N[C@@H](C)C(=O)N[C@H](C(=O)N[C@@H](CCC(=O)O)C(=O)N[C@@H](CCCNC(=N)N)C(=O)N[C@@H](Cc1ccc(O)cc1)C(=O)N[C@@H](CC(C)C)C(=O)N[C@@H](CCCCN)C(=O)N[C@@H](CC(=O)O)C(=O)N[C@@H](CCC(N)=O)C(=O)N[C@@H](CCC(N)=O)C(=O)N[C@@H](CC(C)C)C(N)=O)C(C)C)[C@@H](C)CC | HIV-1 HXB2 | viral infection, luciferase reporter | TZM-bl | – | 886 ± 102
CCCCC(CC)COC(=O)CC(C(=O)OCC(CC)CCCC)S(=O)(=O)O.CCCSc1ccc2[nH]c(NC(=O)OC)nc2c1 (centres unmarked) | Cryptococcus neoformans var. grubii | EUCAST broth microdilution | KN99α reference strain | 72 h, 37 °C, RPMI with 2% glucose | 625
